Published values from different studies.
Each numbered part is a random draw from the data of one study; scales do not carry over between parts.

Study 1
Target: Centromere-binding protein 1, full length, His-tagged (CBF1, Saccharomyces cerevisiae, UniProt P17106, residues 1-351)
Sequence of UniProt P17106 (whole entry, looked up): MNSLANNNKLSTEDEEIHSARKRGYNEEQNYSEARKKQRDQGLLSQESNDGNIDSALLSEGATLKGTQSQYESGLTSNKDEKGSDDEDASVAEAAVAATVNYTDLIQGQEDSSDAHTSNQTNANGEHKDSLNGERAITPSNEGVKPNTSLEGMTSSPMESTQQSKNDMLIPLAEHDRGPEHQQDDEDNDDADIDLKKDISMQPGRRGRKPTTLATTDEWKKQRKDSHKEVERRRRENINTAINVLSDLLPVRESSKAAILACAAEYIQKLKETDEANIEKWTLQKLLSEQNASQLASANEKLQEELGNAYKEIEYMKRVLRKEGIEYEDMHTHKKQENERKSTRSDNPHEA
Method: competition protein-binding microarray
Form: double-stranded DNA, one strand shown
Sample: in vitro
Concentration: 2 µM
Notes: whole 60-bp probe, lowest competitor level
Together with: Pho4 competitor, 0.05 µM
Reading: higher = stronger binding
Shared flanks, not repeated: … GTCTTGATTCGCTTGACGCTGCTG
Oligonucleotide	fluorescence intensity
AAATTACTAAGTTGCACTGTGGGTGACGCCGTATGA	57.7 a.u.
ACAAGCGGTTTTTTTTTCGTGGGTAAACATTATTTG	84.4 a.u.
AAATGAAGCCTCCTCCACGTTTATTGCCTTATTTAA	73.4 a.u.
GCACTTAAGGTAAGGCGCATGATGTACCTGTTTTAT	104 a.u.
CATACCCAACCTTGGGTAGTGGGTGAAGATATTTGT	58.4 a.u.

Study 2
Target: TAR DNA-binding protein 43, full length, His tag (TARDBP, Homo sapiens, UniProt Q13148, residues 1-414)
Method: RNA Bind-n-Seq
Form: RNA
Sample: in vitro
Concentration: 20 nM
Notes: 6-mer, flanks averaged, single round
Together with: 150 mM LiCl
Relative to: input library
Reading: higher = stronger binding
Oligonucleotide	6-mer enrichment (R)
UCCGAA	0.806
GUUGUG	1.7
GAGACU	0.902

Study 3
Target: Histone acetyltransferase KAT6A, winged helix 1, GST fusion (KAT6A, Homo sapiens, UniProt Q92794, residues 1-85)
Method: protein binding microarray
Form: double-stranded DNA, one strand shown
Sample: in vitro
Concentration: not given
Notes: 8-mer, flanks averaged, mean of 2 arrays, mostly near background
Relative to: not given
Reading: higher = stronger binding
Construct (chain): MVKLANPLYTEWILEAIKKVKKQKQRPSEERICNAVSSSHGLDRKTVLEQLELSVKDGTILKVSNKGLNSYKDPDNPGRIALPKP
Oligonucleotide	E-score
TAAGTTGA	-0.22
CTTTCTCA	0.0678
AGATAAAG	-0.0324
ACGTATAG	-0.0407

Mixed results
Molecule	target	test	system	setting	how to read	quantity	result
PhoQ, residues 284 288 289 292 302 303 SLSLLA	PhoP, residues 12 14 15 18 19 LWHVM (Escherichia coli, UniProt P23836)	Sort-seq, measured: YFP reporter	E. coli	PhoQ-PhoP variant library, together with: 10 µM Mg2+	relative to: high Mg2+ state, higher = stronger signaling	fold induction	14.7
